# Measurements from different studies.
# Protein sequences, listed by entry. Tags and fused reporters are not part of them. Residues count along the entry.
# UniProt P43220, whole entry, looked up: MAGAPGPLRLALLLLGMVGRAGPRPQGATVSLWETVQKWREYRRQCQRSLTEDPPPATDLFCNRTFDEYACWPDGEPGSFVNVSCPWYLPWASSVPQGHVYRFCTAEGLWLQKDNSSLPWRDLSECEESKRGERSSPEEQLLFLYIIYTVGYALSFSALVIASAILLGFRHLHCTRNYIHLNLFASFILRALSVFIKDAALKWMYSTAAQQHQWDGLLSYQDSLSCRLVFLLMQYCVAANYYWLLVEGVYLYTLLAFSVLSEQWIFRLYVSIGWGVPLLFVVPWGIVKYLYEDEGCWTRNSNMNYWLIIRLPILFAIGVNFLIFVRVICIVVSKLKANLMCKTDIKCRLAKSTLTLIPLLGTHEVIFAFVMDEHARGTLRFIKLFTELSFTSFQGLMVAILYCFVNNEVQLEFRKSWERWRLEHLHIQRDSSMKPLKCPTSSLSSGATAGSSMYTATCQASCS
# UniProt P43220, 24-463 limits assumed: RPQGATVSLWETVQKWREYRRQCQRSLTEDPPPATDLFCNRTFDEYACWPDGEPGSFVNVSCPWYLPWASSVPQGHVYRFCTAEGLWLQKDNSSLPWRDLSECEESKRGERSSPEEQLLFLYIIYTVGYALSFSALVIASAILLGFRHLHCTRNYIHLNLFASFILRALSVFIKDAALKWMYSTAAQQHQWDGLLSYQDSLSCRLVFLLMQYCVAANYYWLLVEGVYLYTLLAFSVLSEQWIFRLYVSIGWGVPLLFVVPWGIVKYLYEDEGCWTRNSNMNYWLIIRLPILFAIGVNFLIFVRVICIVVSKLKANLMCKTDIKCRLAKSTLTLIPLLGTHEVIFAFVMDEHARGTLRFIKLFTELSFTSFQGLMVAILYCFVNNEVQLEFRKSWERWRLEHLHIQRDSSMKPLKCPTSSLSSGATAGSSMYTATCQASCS
# UniProt Q14833, 33-912 limits assumed: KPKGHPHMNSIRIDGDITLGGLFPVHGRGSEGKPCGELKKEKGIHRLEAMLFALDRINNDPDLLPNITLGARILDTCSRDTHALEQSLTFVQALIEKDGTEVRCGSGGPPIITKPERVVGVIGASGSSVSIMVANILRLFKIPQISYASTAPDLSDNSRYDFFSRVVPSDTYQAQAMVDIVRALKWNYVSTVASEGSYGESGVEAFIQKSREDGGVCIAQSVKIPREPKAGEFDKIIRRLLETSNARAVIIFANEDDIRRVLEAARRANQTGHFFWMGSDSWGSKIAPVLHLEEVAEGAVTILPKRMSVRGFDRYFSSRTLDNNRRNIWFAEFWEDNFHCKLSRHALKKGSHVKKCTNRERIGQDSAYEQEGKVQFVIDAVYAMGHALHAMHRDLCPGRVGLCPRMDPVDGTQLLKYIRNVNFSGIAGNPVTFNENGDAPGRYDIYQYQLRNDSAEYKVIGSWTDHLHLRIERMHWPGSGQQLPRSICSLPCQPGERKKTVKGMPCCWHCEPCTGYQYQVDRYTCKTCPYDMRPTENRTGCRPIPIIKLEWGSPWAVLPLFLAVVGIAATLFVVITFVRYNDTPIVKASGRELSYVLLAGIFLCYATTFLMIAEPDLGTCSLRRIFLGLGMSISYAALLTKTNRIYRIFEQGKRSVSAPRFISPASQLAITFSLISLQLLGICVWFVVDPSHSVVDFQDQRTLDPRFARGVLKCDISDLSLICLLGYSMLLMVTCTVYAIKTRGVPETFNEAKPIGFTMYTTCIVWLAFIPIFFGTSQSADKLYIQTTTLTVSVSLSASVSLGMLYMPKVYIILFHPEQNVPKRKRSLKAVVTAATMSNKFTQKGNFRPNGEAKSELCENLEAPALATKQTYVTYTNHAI
# UniProt Q923Y8, whole entry: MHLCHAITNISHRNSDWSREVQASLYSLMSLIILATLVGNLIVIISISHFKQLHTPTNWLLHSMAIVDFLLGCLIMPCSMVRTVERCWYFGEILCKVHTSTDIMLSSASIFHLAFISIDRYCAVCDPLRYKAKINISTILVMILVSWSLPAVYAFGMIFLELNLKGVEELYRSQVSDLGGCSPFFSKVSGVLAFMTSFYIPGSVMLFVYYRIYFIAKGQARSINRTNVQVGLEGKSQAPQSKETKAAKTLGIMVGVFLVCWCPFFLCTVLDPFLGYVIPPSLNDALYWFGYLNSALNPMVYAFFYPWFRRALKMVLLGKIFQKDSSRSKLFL
# UniProt Q5JUK3, whole entry: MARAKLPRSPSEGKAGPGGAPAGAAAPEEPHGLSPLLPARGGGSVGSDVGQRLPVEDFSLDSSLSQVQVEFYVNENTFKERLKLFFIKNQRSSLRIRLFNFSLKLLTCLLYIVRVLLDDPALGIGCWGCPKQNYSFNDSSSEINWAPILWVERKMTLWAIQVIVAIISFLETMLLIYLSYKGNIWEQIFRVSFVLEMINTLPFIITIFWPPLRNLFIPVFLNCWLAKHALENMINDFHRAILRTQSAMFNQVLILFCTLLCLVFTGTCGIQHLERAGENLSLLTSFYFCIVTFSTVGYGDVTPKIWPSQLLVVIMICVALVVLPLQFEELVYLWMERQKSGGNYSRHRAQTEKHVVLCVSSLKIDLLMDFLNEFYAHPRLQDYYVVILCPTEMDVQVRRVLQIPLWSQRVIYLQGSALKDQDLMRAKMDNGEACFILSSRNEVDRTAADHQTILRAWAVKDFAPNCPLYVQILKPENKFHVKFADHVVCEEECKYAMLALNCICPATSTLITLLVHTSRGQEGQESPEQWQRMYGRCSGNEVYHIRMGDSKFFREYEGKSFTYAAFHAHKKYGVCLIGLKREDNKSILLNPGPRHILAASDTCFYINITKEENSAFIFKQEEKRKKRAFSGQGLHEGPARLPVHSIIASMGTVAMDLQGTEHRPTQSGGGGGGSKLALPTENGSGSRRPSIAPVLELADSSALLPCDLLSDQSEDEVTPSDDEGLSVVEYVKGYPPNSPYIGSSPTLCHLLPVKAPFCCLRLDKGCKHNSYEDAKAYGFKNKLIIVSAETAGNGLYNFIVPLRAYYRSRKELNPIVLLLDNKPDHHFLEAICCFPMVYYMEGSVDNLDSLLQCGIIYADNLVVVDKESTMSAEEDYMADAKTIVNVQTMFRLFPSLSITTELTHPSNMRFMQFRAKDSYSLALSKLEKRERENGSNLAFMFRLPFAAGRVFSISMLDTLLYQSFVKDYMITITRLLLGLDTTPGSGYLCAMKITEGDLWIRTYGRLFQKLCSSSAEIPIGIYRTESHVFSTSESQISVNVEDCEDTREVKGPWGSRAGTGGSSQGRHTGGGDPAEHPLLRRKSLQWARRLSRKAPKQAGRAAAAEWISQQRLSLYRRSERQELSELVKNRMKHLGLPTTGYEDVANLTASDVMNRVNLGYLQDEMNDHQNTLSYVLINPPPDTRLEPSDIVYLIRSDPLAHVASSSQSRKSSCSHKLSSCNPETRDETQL
# UniProt Q3UFF7, whole entry: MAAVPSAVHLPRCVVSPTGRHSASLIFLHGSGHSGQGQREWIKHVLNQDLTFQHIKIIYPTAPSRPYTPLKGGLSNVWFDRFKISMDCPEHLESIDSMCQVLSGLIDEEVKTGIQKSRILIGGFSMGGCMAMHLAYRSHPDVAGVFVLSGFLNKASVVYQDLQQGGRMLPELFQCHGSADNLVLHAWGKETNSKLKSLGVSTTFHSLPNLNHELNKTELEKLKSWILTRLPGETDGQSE
# UniProt P31423, 33-912 limits assumed: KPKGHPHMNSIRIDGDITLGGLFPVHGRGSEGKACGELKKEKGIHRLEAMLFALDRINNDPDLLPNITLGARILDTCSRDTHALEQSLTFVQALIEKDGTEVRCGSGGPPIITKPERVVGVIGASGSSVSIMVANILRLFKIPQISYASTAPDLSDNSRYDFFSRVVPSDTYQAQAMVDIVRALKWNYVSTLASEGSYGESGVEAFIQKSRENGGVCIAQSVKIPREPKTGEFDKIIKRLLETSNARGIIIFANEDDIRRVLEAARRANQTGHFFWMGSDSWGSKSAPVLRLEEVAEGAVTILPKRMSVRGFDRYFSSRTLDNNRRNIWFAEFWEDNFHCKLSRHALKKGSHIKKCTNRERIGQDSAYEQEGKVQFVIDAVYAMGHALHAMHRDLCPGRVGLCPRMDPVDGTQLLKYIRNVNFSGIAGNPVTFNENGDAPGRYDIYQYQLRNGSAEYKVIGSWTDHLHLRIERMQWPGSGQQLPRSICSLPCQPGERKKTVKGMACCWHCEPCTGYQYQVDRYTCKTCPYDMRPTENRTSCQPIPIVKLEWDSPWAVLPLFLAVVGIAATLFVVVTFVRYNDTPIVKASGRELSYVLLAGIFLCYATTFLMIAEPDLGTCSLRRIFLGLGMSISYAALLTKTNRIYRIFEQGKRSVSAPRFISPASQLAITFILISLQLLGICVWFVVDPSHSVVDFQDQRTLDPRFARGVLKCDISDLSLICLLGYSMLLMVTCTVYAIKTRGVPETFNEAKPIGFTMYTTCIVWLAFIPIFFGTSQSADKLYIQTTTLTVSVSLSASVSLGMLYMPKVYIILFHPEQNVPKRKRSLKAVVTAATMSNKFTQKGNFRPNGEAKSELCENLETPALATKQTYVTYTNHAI
# UniProt Q923Y9, whole entry N287Y: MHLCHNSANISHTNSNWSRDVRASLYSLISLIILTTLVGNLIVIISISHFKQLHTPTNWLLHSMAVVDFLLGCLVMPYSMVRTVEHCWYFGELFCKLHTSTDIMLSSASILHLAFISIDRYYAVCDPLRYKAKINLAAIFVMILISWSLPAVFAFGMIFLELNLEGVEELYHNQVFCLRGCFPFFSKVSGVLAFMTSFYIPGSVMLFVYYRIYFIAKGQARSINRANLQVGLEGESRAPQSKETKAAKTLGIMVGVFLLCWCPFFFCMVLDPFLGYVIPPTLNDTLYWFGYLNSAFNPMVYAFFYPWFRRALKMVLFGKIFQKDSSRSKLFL
# UniProt P13569, whole entry N1303K: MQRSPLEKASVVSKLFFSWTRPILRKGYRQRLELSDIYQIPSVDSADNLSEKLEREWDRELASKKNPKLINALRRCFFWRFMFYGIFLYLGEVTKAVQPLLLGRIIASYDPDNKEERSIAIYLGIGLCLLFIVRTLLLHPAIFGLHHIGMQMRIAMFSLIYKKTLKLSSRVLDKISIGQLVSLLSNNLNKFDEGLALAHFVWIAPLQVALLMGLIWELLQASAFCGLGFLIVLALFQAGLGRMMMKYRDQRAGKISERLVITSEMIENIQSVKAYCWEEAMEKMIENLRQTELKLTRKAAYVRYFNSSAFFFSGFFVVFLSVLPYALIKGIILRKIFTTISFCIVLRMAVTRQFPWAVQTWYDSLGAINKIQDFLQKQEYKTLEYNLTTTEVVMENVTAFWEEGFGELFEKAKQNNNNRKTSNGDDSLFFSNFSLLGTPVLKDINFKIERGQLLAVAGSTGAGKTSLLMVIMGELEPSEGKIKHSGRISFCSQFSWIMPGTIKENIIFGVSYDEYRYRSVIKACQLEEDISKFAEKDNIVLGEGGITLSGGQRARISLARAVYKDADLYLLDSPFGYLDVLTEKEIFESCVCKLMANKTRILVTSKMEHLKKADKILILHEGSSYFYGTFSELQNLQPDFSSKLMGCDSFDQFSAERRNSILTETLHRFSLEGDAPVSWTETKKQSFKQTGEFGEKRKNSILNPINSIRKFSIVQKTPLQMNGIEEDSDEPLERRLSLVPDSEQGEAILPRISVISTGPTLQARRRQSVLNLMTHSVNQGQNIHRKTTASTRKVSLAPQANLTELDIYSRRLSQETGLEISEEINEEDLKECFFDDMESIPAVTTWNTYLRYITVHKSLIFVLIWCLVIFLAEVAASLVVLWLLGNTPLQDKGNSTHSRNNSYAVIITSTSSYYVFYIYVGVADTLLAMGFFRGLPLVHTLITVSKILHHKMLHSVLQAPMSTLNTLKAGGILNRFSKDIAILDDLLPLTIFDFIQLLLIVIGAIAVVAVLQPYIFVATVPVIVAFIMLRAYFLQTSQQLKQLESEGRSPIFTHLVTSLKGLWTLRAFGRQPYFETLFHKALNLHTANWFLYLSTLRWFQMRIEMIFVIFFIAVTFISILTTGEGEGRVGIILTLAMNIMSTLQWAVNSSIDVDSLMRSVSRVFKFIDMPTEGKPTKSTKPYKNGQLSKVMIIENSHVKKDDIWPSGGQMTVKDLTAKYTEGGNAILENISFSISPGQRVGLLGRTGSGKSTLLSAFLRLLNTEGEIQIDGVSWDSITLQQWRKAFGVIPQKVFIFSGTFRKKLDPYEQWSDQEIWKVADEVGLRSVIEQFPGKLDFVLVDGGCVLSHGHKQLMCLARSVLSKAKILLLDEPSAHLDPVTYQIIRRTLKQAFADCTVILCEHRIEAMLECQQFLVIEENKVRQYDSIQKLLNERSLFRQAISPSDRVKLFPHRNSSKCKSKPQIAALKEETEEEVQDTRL
# UniProt Q99685, whole entry: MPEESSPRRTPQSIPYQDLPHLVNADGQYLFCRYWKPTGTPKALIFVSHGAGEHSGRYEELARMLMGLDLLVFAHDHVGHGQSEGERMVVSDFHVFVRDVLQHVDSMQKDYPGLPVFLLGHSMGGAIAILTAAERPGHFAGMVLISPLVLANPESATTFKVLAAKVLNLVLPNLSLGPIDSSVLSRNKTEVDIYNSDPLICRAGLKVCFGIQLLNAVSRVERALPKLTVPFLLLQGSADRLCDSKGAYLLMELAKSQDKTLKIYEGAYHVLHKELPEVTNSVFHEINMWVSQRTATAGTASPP
# Lines come from different studies, so protocols differ. ± marks the error that the study gave.
# GLP1R: Glucagon-like peptide 1 receptor (GLP1R, Homo sapiens, UniProt P43220)
# Melanocortin receptor 3: Melanocortin receptor 3 (Mus musculus, UniProt P33033)
# FPR2: N-formyl peptide receptor 2 (FPR2, Homo sapiens, UniProt P25090)
# GRM4: Metabotropic glutamate receptor 4 (GRM4, Homo sapiens, UniProt Q14833)
# Taar1: Trace amine-associated receptor 1 (Taar1, Mus musculus, UniProt Q923Y8)
# KCNT1: Potassium channel subfamily T member 1 (KCNT1, Homo sapiens, UniProt Q5JUK3)
# LDHA: L-lactate dehydrogenase A chain (LDHA, Homo sapiens, UniProt P00338)
# Lysophospholipase-like protein 1: Lysophospholipase-like protein 1 (Mus musculus, UniProt Q3UFF7)
Structure (SMILES),target,assay,system,conditions,EC50
CC(=O)NCc1cn(CCc2c(C)[nH]c3cc(Cl)cc(Cl)c23)nn1,GLP1R,"cAMP accumulation, positive allosteric modulator, HTRF",CHO-K1 expressing GLP1R,"crude reaction product, added: GLP-1(9-36) at EC20",825 nM
NCCCCNC(=O)[C@H](Cc1ccc(Cl)cc1)NC(=O)N1CCc2ccccc2C1,Melanocortin receptor 3,"reporter gene, agonist, β-galactosidase reporter",HEK293 stably expressing Melanocortin receptor 3,,> 100000 nM
CC(C)(Cn1cc(CN[C@@H]2CCc3ccccc32)nn1)c1c[nH]c2ccccc12,GLP1R,"cAMP accumulation, positive allosteric modulator, HTRF",CHO-K1 expressing GLP1R,"purified compound, added: GLP-1(9-36) at EC20",1840 ± 338 nM
CCCC(C(=O)Nc1ccc(Br)cc1)n1nc(C)cc(Cc2cccc(OC)c2)c1=O (racemic),FPR2,"calcium mobilization, agonist",HL-60 transfected with FPR2,,3600 nM
COc1ccc(NC(=O)CN2CCCN(S(=O)(=O)c3ccccc3)CC2)c(OC)c1,GRM4,"calcium mobilization, positive allosteric modulator",CHO cells with Gqi5,added: glutamate EC20,3500 ± 700 nM
CC(C)(Cn1cc(-c2ccc(S(C)(=O)=O)cc2)nn1)c1c[nH]c2ccccc12,GLP1R,"cAMP accumulation, positive allosteric modulator, HTRF",CHO-K1 expressing GLP1R,"purified compound, added: GLP-1(9-36) at EC20",1160 ± 255 nM
NCC(c1ccc(O)cc1)c1ccc(O)cc1,Taar1,"cAMP production, agonist",HEK293,,> 10000 nM
Cc1nc(-c2ccc(OCC(C)C)c(C#N)c2)sc1C(N)=O,"Grm4 (Rattus norvegicus, UniProt P31423)",thallium flux,HEK293 GIRK,,2100 nM
CC(C)(Cn1cc(CCC(=O)Nc2ccccc2)nn1)c1c[nH]c2ccccc12,GLP1R,"cAMP accumulation, positive allosteric modulator, HTRF",CHO-K1 expressing GLP1R,"crude reaction product, added: GLP-1(9-36) at EC20",1110 nM
Cc1ccc2c(c1)ncn2CC1CCN(S(=O)(=O)c2cccc(C(F)(F)F)c2)CC1,KCNT1,"thallium flux, activator",HEK293 expressing KCNT1,,2400 nM
Cc1ccc2c(c1)C(n1cc(CNc3ccc(C(=O)NCCC(=O)O)cc3)nn1)CCC2 (centres unmarked),GLP1R,"cAMP accumulation, positive allosteric modulator, HTRF",CHO-K1 expressing GLP1R,added: GLP-1 at EC20,5180 nM
COCC#Cc1cc(-c2nn(-c3nc(C(=O)O)cs3)c(CC3CC3)c2Cc2ccc(S(N)(=O)=O)c(F)c2)ccc1F,LDHA,"thermal stabilisation, CETSA",HEK293,"3.5 min, 71 °C",60 nM
CSc1cc(NC(=O)c2ccccn2)ccc1Cl,"GRM8 (Homo sapiens, UniProt O00222)",agonist,,,14000 nM
NCCCCNC(=O)[C@H](Cc1ccc2ccccc2c1)NC(=O)N1CCc2ccccc2C1,Melanocortin receptor 3,"reporter gene, agonist, β-galactosidase reporter",HEK293 stably expressing Melanocortin receptor 3,,> 100000 nM
CCCN(C(=O)C1CCN(S(=O)(=O)c2ccc3[nH]ncc3c2)CC1)[C@@H]1CCc2ccccc21,"CHRM5 (Homo sapiens, UniProt P08912)","positive allosteric modulator, calcium mobilization",CHO cells expressing human M5,added: acetylcholine EC20,112 nM
CC(C)Oc1ccccc1-n1c(CN2CCN(C(=O)COc3ccc(Cl)cc3)CC2)nc2c(Cl)cccc2c1=O,"Slc7a11 (Rattus norvegicus, UniProt A0A8I6AB70)","cystine uptake, inhibitor, item: [14C]cystine",rat primary microglia,"15 min, added: LPS",1750 ± 390 nM
COc1ccc(NC(=O)CN2CCCN(S(=O)(=O)c3ccc(Cl)c(F)c3)CC2)c(OC)c1,GRM4,"calcium mobilization, positive allosteric modulator",CHO cells with Gqi5,added: glutamate EC20,4500 ± 700 nM
COc1ccc2c(c1)ncn2CC1CCN(S(=O)(=O)c2cccc(C(F)(F)F)c2)CC1,KCNT1,"thallium flux, activator",HEK293 expressing KCNT1,,2100 nM
Cc1c(=O)n(C)c(Nc2ccc(I)cc2F)c2c(=O)n(C3CC3)c(=O)n(-c3cccc(NC(=O)CCOCCOCCNC(=O)CCC4=[N+]5C(=Cc6ccc(-c7ccc[nH]7)n6[B-]5(F)F)C=C4)c3)c12,"Dual specificity mitogen-activated protein kinase kinase 1, with ARAF (MAP2K1, Homo sapiens, UniProt Q02750)","binding, NanoBRET",HEK-293T,MEK1-NanoLuc with ARAF,167 ± 27 nM
O=C(Nc1ccccc1)C12CC1/C(=N\O)c1cc(F)ccc1O2 (centres unmarked),GRM4,"calcium mobilization, positive allosteric modulator",CHO hmGluR4/Gqi5,added: glutamate EC20,> 5000 nM
CCS(=O)(=O)c1nc(-c2ccc(F)cc2)cc(C(F)F)n1,GLP1R,"cAMP accumulation, positive allosteric modulator",HEK293T overexpressing target,added: GLP-1 at EC20,38000 ± 8800 nM
NS(=O)(=O)c1ccc(Cc2c(-c3ccc(F)c(C#CC4CC4)c3)nn(-c3nc(C(=O)O)cs3)c2CC2CC2)cc1F,LDHA,"thermal stabilisation, CETSA",HEK293,"3.5 min, 71 °C",40 nM
NCC(c1ccccc1)c1cccc(Oc2ccccc2)c1 (centres unmarked),"Trace amine-associated receptor 1 (Rattus norvegicus, UniProt Q923Y9, N287Y)","cAMP, agonist",,rat receptor mutant,~10000 nM
CCCCOC(=O)[C@@]12C[C@@H]1[C@@H](n1cnc3c(NC)nc(C#Cc4ccc(Cl)s4)nc31)[C@H](O)[C@@H]2O,"SLC6A3 (Homo sapiens, UniProt Q01959)",,,,910 ± 95.8 nM
Nc1nc(SCc2ccc(Cl)cc2)nn1S(=O)(=O)c1ccoc1,Lysophospholipase-like protein 1,"enzyme activity, activator, gel-based ABPP, FP-rhodamine",purified protein,,> 20000 nM
CCc1ccc(NS(=O)(=O)c2cn(Cc3ccccn3)c3ncccc23)cc1,"CFTR (Homo sapiens, UniProt P13569, N1303K)","chloride current, co-potentiator, short-circuit current",FRT expressing CFTR,"added: forskolin, 5 µM ivacaftor",1700 nM
Cc1ccc(F)cc1S(=O)(=O)n1nc(SCc2ccccc2)nc1N,Lysophospholipase-like protein 1,"enzyme activity, activator, gel-based ABPP, FP-rhodamine",purified protein,,> 20000 nM
COc1ccc(C2=[N+]3C(=Cc4c(C)c(CCC(=O)NCc5cn(CCOc6ccc(C(c7ccc(Cl)cc7)N7CCN(C(=O)OC(C(F)(F)F)C(F)(F)F)CC7)cc6)nn5)c(C)n4[B-]3(F)F)C=C2)cc1 (centres unmarked),"MGLL (Homo sapiens, UniProt Q99685)","target engagement, gel-based ABPP",U-87 MG,"1 h, 37 °C",~10 nM
CCOC(=O)c1ccc(-c2c(-c3ccncc3)nnn2CC(=O)Nc2ccc(-c3ccccc3)cn2)cc1,"Protein-serine O-palmitoleoyltransferase porcupine (Mus musculus, UniProt Q9JJJ7)","Wnt signalling reporter, inhibitor",L-Wnt-STF,,7 nM
COc1ccc(NC(=O)CN2CCCN(S(=O)(=O)c3ccc(Cl)cc3)CC2)c(OC)c1,GRM4,"calcium mobilization, positive allosteric modulator",CHO cells with Gqi5,added: glutamate EC20,4100 ± 600 nM
Cc1nc2ccc(S(=O)(=O)n3nc(NCCc4ccc(Cl)cc4)nc3N)cc2s1,Lysophospholipase-like protein 1,"enzyme activity, activator, gel-based ABPP, FP-rhodamine",purified protein,,> 20000 nM
COc1ccc(NC(=O)CN2CCCN(S(=O)(=O)c3ccc(C(C)(C)C)cc3)CC2)c(OC)c1,GRM4,"calcium mobilization, positive allosteric modulator",CHO cells with Gqi5,added: glutamate EC20,> 10000 nM
CCC(C)(N)c1cn(CC(C)(C)c2c[nH]c3ccccc23)nn1 (centres unmarked),GLP1R,"cAMP accumulation, positive allosteric modulator, HTRF",CHO-K1 expressing GLP1R,"crude reaction product, added: GLP-1(9-36) at EC20",1160 nM
CCn1nc(C)cc1C(=O)Nc1nc2cc(C(N)=O)cc(OC)c2n1C/C=C/Cn1c(NC(=O)c2cc(C)nn2CC)nc2cc(C(N)=O)cc(OCCOCCNC(=O)CCCCCN3C(=O)C=CC3=O)c21,"Sting1 (Mus musculus, UniProt Q3TBT3)","IFN-β secretion, agonist, ELISA",mouse BMDCs,carrier-free cysteine-blocked click,949 nM
COc1ccc(NC(=O)CN2CCCN(S(=O)(=O)c3cccs3)CC2)c(OC)c1,GRM4,"calcium mobilization, positive allosteric modulator",CHO cells with Gqi5,added: glutamate EC20,1800 ± 300 nM
COc1cc(Nc2ncc3c(n2)-c2ccc(Cl)cc2C(c2c(F)cccc2OC)=NC3)ccc1C(=O)NCCOCCOCCOCCOCC(=O)N[C@H](C(=O)N1C[C@H](O)C[C@H]1C(=O)NCc1ccc(-c2scnc2C)cc1)C(C)(C)C,"Aurora kinase A (AURKA, Homo sapiens, UniProt O14965)","target engagement, NanoBRET",HEK293,2 h,471 ± 160 nM
O=C(Nc1ccc([N+](=O)[O-])cc1)N[C@@H](Cc1c[nH]c2ccccc12)C(=O)NCC1(c2ccccn2)CCCCC1,FPR2,"Ca2+ mobilization, agonist",HL-60 transfected with FPR2,,2000 ± 650 nM
CCCn1c(NCc2ccccc2O)nc2ccccc21,"ALDH1A1 (Homo sapiens, UniProt P00352)","enzyme activity, inhibitor, NADH absorbance 340 nm",,"pH 7.5, 25 °C, 200 µM NAD+, added: 100 µM propionaldehyde",3700 ± 380 nM
COc1ccc(S(=O)(=O)n2nc(SCc3ccc(Cl)cc3)nc2N)cn1,"LYPLAL1 (Homo sapiens, UniProt Q5VWZ2)","enzyme activity, activator, gel-based ABPP, FP-rhodamine",purified protein,,710 nM
NCC(c1ccccc1)c1ccc(O)cc1 (centres unmarked),Taar1,"cAMP production, agonist",,,≥ 10000 nM
Nc1nc(SCc2ccc(Cl)cc2)nn1S(=O)(=O)c1ccc2[nH]c(=O)[nH]c2c1,Lysophospholipase-like protein 1,"enzyme activity, activator, gel-based ABPP, FP-rhodamine",purified protein,,740 nM
Cc1[nH]c2cc(Cl)cc(Cl)c2c1CCn1cc(CN2CCS(=O)(=O)CC2)nn1,GLP1R,"cAMP accumulation, positive allosteric modulator, HTRF",CHO-K1 expressing GLP1R,"purified compound, added: GLP-1(9-36) at EC20",663 ± 171 nM
CCC[C@@H]1CC(=O)C2=C(C1)NC(C)=C(C#N)[C@H]2c1cc(Br)c(OCc2cccc(C(=O)NCCOCCOCCOCCN=[N+]=[N-])c2)c(OCC)c1,"FSHR (Homo sapiens, UniProt P23945)","reporter gene, agonist, CRE-luciferase",CHO expressing human FSHR,,6 nM
NCCCCNC(=O)[C@H](Cc1ccccc1)NC(=O)N1CCc2ccccc2C1,"Mc1r (Mus musculus, UniProt Q01727)","reporter gene, agonist, β-galactosidase reporter",HEK293 stably expressing Mc1r,,3800 ± 300 nM
O=C(NC1CCCCC1)C12CC1/C(=N\O)c1ccccc1O2 (centres unmarked),GRM4,"calcium mobilization, positive allosteric modulator",CHO hmGluR4/Gqi5,added: glutamate EC20,> 5000 nM
NCC(c1ccc(O)cc1)c1ccc(Oc2ccccc2)cc1 (centres unmarked),Taar1,"cAMP production, agonist",HEK293,,> 10000 nM
CCc1ccc(NC(=O)CSc2nc3ccc(OC)cc3[nH]2)cc1,"FPR1 (Homo sapiens, UniProt P21462)","calcium mobilization, agonist",HL-60 transfected with FPR1,,5500 nM
